Results pooled from the literature.
Each numbered part is a random draw from the data of one study; scales do not carry over between parts.

Block 1 — technique: RNA Bind-n-Seq; molecule type: RNA; medium: in vitro; tested at: 20 nM; notes: 6-mer, flanks averaged, single round; with: 150 mM KCl; reference: input library; reading: higher = stronger binding
Target: TAR DNA-binding protein 43, full length, His tag (TARDBP, Homo sapiens, UniProt Q13148, residues 1-414)
Oligonucleotide | 6-mer enrichment (R)
CCGCUA | 0.63
UUCCAC | 0.569
CAUGCC | 0.659
UACUGC | 0.627
GUGGCU | 1.37
UCGAGC | 0.766
GACUAC | 0.672
CCAAAA | 0.645

Block 2 — technique: DNA-protein interaction ELISA; molecule type: double-stranded DNA, one strand shown; medium: in vitro, bacterial lysate; tested at: not given; notes: whole dsDNA probe, crude lysate protein; reference: highest signal in screen; reading: higher = stronger binding
Target: Probable WRKY transcription factor 33, N-terminal DNA-binding domain (WRKY33, Arabidopsis thaliana, UniProt Q8S8P5, residues 169-264)
Residues (chain): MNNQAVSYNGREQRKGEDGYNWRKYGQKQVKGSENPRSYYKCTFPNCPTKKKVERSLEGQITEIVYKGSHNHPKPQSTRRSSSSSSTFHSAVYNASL
Oligonucleotide | relative absorbance
AAAAAATGCCCATGTGCACCCGTACGAAAA | 18.5 % of maximum
AAAAAAAGCTTCTATAGCTCCATGGAAAA | 21.8 % of maximum
AAAAAACTTGCTCCTCCGTTTTACTCAAAA | 21.9 % of maximum
AAAAAAGTAGGTGCTGATGCTGGCCGAAAA | 20.8 % of maximum
AAAAAAACCCGTGCCTGCCTATTGCAAAAA | 17.3 % of maximum
AAAAAAACTCACGGCGTCACTATGGTAAAA | 17.7 % of maximum

Block 3 — technique: protein-binding microarray; molecule type: double-stranded DNA, one strand shown; medium: in vitro; tested at: 0.8 µM; notes: whole 60-bp probe, no competitor; reading: higher = stronger binding; all sequences stand within: … GTCTTGATTCGCTTGACGCTGCTG
Target: Centromere-binding protein 1, full length, N-terminal tag (CBF1, Saccharomyces cerevisiae, UniProt P17106, residues 1-351)
Sequence of UniProt P17106 (whole entry, looked up): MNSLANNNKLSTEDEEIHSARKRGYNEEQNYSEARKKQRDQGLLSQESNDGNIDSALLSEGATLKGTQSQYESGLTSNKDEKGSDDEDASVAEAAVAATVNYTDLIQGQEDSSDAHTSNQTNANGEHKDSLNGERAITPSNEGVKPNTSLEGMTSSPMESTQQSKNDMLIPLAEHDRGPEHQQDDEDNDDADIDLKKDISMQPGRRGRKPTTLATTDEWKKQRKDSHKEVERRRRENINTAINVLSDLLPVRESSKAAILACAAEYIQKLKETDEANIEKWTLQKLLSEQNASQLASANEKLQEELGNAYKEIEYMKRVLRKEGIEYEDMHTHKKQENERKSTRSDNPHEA
Oligonucleotide | fluorescence intensity [a.u.]
GAAGGTAAATATGGTAACGTGCGACAATAAACATAG | 1440
CTAACTATACATCAACATCAGCATCAAAATTAATTC | 559
CCTAACTACTATAACCACGTTACATAGCTTCGTACA | 652
GAATGTGCTAGTGGTGGCGTGATGCAAGAAGCTTAG | 1290
GAAGTTTAGCATTCACGTGTAACTGCAATGAATTAG | 4210
CTATTGCTTCGTCATCACCACCTTTCTCTTTTATTC | 528
TGTACGAAGCTATTCCACGATGATATAGTAGTTAGG | 538

Further values, each from its own experiment
Molecule | target | test | test system | setting | scale | measurement | value
PhoQ, residues 284 288 289 292 302 303 DDMDFR | PhoP, residues 12 14 15 18 19 MHTVL (Escherichia coli, UniProt P23836) | Sort-seq, measured: YFP reporter | E. coli | PhoQ-PhoP variant library, with: 10 µM Mg2+ | reference: high Mg2+ state, higher = stronger signaling | fold induction | 0.693

Repeated from above (further values, each from its own experiment):
Molecule | target | test | test system | setting | scale | measurement | value
PhoQ, residues 284 288 289 292 302 303 DDMDFR | PhoP, residues 12 14 15 18 19 MHTVL (Escherichia coli, UniProt P23836) | Sort-seq, measured: YFP reporter | E. coli | PhoQ-PhoP variant library, with: 10 µM Mg2+ | reference: high Mg2+ state, higher = stronger signaling | fold induction | 0.693
